Measured values from different studies.
Parts stem from different laboratories: compare values within a part only.

Study 1
Target: Prothrombin, mature alpha-thrombin (F2, Homo sapiens, UniProt P00734)
Technique: aptamer microarray, sandwich
Molecule type: DNA with 2'F-ANA
Matrix: in vitro
Tested at: 200 nM
Notes: whole 15-mer aptamer, many near background
Together with: Cy3 exosite-II aptamer, 400 nM
Direction: higher = stronger binding
Quantity: mean fluorescence intensity
GGTTGGTGTGGTTGG (2'F-ANA at 3 5 8 10 14 15): 57 a.u.
GGTTGGTGTGGTTGG (2'F-ANA at 2 4 6 7 8 9 10 11 12 14 15): 130 a.u.
GGTTGGTGTGGTTGG (2'F-ANA at 3 5 6 7 11 13 15): 76 a.u.

Study 2
Target: RNA binding protein fox-1 homolog 2, RRM domain, GST-SBP tag (RBFOX2, Homo sapiens, UniProt O43251-10, residues 100-194)
Technique: RNA Bind-n-Seq
Molecule type: RNA
Matrix: in vitro
Tested at: 365 nM
Notes: natural RNA segment, single round, ends assumed
Reference: no-protein control
Direction: higher = stronger binding
Quantity: RBNS enrichment (R)
Residues (chain): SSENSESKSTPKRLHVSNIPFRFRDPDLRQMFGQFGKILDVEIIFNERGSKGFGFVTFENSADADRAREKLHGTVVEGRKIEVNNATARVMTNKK
GGGAGUUCUACAGUCCGACGAUCAAUAAAAGGCCAUUUCGGACUCUGUCCUGCUUGGACUAAUUGGCCUUCUGGACCCCUCCACUCUGGCCGUACCCGAUGGUCUGAGUGGUUUUGCCACCUCCUCUCUCAGUUGGAAUUCUCGGGUGCCAA: 0.318
GGGAGUUCUACAGUCCGACGAUCGAGAUGGUAAUAUGACUCUCCAUAUUUUGGUACCAAUUCUGAGACUGUAUGAAUUUUCAGGUGGAACUUUAGCACACACUGAAGCAAAGUUGUGAAGUGCAGGGCGGGAGUGGAAUUCUCGGGUGCCAA: 0.483
GGGAGUUCUACAGUCCGACGAUCGCCUUUGCUGACCGUUUUGGGGUUCCCCGCCGGAGCUACAGGGGCAUUUUCUUCCCUAAAACCAACAGUGUCCCACUGACCUCCCCAAGUGUUUGCUGCGUGGCAGAUUUUGGAAUUCUCGGGUGCCAA: 0.562
GGGAGUUCUACAGUCCGACGAUCGGUUUUUUUUUUUUUUAAGUUUUUUCUUUCUUCCUCUCCUGAAUACACUCCCCAAAACACCCCUUUCCAGUUACAAUUAGCAUCGUGAUCCAAGCAGAUGCCACAUGGAAUGGAAUUCUCGGGUGCCAA: 0.629

Mixed results
IRF7 S471D/S472D/S475D/S476D/S477D/S483D/S484D/S487D full length, phosphomimetic: Interferon regulatory factor 7, full length, phosphomimetic (IRF7, Homo sapiens, UniProt Q92985, residues 1-503, S471D/S472D/S475D/S476D/S477D/S483D/S484D/S487D)
Sequence of UniProt Q92985 (whole entry, unmodified, looked up): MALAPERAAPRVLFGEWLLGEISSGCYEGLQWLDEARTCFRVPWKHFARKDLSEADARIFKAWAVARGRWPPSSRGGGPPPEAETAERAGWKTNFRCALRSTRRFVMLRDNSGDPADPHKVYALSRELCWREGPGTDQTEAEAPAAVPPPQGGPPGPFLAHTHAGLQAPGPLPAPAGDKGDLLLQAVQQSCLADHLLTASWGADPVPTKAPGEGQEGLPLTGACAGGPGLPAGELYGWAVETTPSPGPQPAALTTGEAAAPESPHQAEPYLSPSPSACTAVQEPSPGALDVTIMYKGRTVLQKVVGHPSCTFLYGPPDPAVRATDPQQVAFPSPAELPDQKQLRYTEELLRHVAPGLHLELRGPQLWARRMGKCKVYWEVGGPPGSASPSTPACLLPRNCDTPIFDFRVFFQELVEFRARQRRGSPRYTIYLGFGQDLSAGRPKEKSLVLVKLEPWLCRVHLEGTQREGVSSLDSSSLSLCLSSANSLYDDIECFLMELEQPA
IRF5 K96S/S451D/S453D/S456D/S462D full length, phosphomimetic: Interferon regulatory factor 5, full length, phosphomimetic (IRF5, Homo sapiens, UniProt Q13568-2, residues 1-514, K96S/S451D/S453D/S456D/S462D)
GCCTAGCACAGTTTTTACTTTCTGAATGCGTGCTAGGTCTTGATTCGCTTGACGCTGCTG  fitted relative affinity (IRF7 S471D/S472D/S475D/S476D/S477D/S483D/S484D/S487D full length, phosphomimetic; protein-binding microarray; double-stranded DNA, one strand shown, in vitro; 2200 nM top, 60-bp whole probe, together with: salmon DNA 0.4 mg/ml; reference: random background probes, higher = stronger binding): 5.19 z-score
PhoQ, residues 284 288 289 292 302 303 SCKMEA  fold induction (PhoP, residues 12 14 15 18 19 TTLRV (Escherichia coli, UniProt P23836); Sort-seq, item: YFP reporter; E. coli; PhoQ-PhoP variant library, together with: 10 µM Mg2+; reference: high Mg2+ state, higher = stronger signaling): 3.63
GCCTAGCACGACGGACTGGGGCTTCGGGACGTGCTAGTCTTGATTCGCTTGACGCTGCTG  log fluorescence (IRF5 K96S/S451D/S453D/S456D/S462D full length, phosphomimetic; protein-binding microarray; double-stranded DNA, one strand shown, in vitro; 250 nM, 60-bp whole probe, together with: salmon DNA 0.4 mg/ml; reference: random background probes, higher = stronger binding): -0.701 z-score
GCCTAGCACGACGGACTGGGTACCGGGACGTGCTAGGTCTTGATTCGCTTGACGCTGCTG  fitted relative affinity (IRF7 S471D/S472D/S475D/S476D/S477D/S483D/S484D/S487D full length, phosphomimetic; protein-binding microarray; double-stranded DNA, one strand shown, in vitro; 2200 nM top, 60-bp whole probe, together with: salmon DNA 0.4 mg/ml; reference: random background probes, higher = stronger binding): -1.01 z-score
GCCTAGCACTACGATATCAGTATCGAGACGTGCTAGGTCTTGATTCGCTTGACGCTGCTG  log fluorescence (IRF5 K96S/S451D/S453D/S456D/S462D full length, phosphomimetic; protein-binding microarray; double-stranded DNA, one strand shown, in vitro; 250 nM, 60-bp whole probe, together with: salmon DNA 0.4 mg/ml; reference: random background probes, higher = stronger binding): 3.29 z-score

Repeated from above (study 1):
GGTTGGTGTGGTTGG (2'F-ANA at 3 5 8 10 14 15): 57 a.u.
